Measurements from different studies.

Structure (SMILES) | assay | test system | conditions | measurement | result
N[C@@H](Cc1ccc(O)c(O)c1)C(=O)O | actiwatch activity | MPTP-lesioned marmoset, dyskinetic | 20 mg/kg | time to OFF without dyskinesia | ~145 min
Cc1cc(C#N)cc(C)c1Oc1nc(Nc2ccc(C#N)cc2)nc(N)c1Br | – | FaSSIF | concentration not given, no polymer | time to precipitation plateau | ~30 min
C[C@@H](NC(=O)N1C(=O)[C@H](Cc2ccnc(N)c2)[C@H]1C(=O)O)C1CCCCC1 | UPLC-MS/MS | healthy adult Chinese volunteers, plasma | continuous intravenous infusion, 0.6 mg/kg/h, day 1 of 5-day infusion, median | time to steady state | 0.0425 days
CN[C@H](CC(C)C)C(=O)N[C@H]1C(=O)N[C@@H](CC(N)=O)C(=O)N[C@H]2C(=O)N[C@H]3C(=O)N[C@H](C(=O)N[C@H](C(=O)O)c4cc(O)cc(O)c4-c4cc3ccc4O)[C@H](O)c3ccc(c(Cl)c3)Oc3cc2cc(c3O[C@@H]2O[C@H](CO)[C@@H](O)[C@H](O)[C@H]2O[C@H]2C[C@](C)(N)[C@H](O)[C@H](C)O2)Oc2ccc(cc2Cl)[C@H]1O | – | poloxamer 407 hydrogel | pH 7.4, 37 °C, single agent loaded | time to complete release | 12 h
Cn1cncc1[C@@](N)(c1ccc(Cl)cc1)c1ccc2c(c1)c(-c1cccc(Cl)c1)cc(=O)n2C | – | cancer patients, plasma | 30 to 300 mg once or twice daily | time to steady state | ≤ 3 days
CCN1CCN(Cc2ccc(Nc3ncc(F)c(-c4cc(F)c5nc6n(c5c4)[C@H](C)CCC6)n3)nc2)CC1 | Phase Ia, non-compartmental | patients with advanced solid tumours, plasma | multiple dosing | time to steady state | 7 days
CC1(C)C(/C=C/C=C/C=C/C=C2\N(CCCCS(=O)(=O)O)c3ccc4ccccc4c3C2(C)C)=[N+](CCCCS(=O)(=O)[O-])c2ccc3ccccc3c21 | – | solution | 66 µM, 4 °C, dark, 800 nm | time to fluorescence decrease onset | 2 days
CC1(C)CCC(c2ccc(Cl)cc2)=C(CN2CCN(c3ccc(C(=O)NS(=O)(=O)c4ccc(N[C@H](CCN5CCOCC5)CSc5ccccc5)c(S(=O)(=O)C(F)(F)F)c4)cc3)CC2)C1 | – | – | pH 6.5, 37 °C | time to solubility equilibrium | ~72 h
C=CC(=O)NC1CCN(c2ncc3ncnc(Nc4ccc(Oc5ccc6c(c5)ncn6C)c(C)c4)c3n2)CC1 | – | healthy male volunteers, urine | oral, 60 mg | time to urinary excretion plateau | ~48 h
